Published values from different studies.
Protocols differ between the studies behind these lines.
Organism: Mycobacterium tuberculosis

| SMILES | assay | system | setting | MIC |
| --- | --- | --- | --- | --- |
| O=c1[nH]c2nc(-c3ccccc3)sc2c(=O)n1O | – | – | highest tested 100 µM | 12.7 µM |
| NC(=S)NN=Cc1ccc(OC(=O)CN2C(=O)CSC2=O)c(Br)c1 | Alamar blue | 192 | – | 18.6 µM |
| COc1ccc2cc1Oc1cc(ccc1OC)CCC(N[C@H]1CCCc3ccccc31)CCCC2 (stereo partly drawn) | broth microdilution | H37Rv | – | 50 µg/mL |
| CC(C)C[C@H](NC(=O)[C@H](C)NC(=O)[C@H](CCC(=O)O)NC(=O)[C@@H](N)Cc1c[nH]cn1)C(=O)N[C@@H](CO)C(=O)N[C@@H](CC(=O)O)C(=O)N1CCC[C@H]1C(=O)N[C@@H](CC(=O)O)C(=O)O | – | H37Rv | – | > 100 µg/mL |
| C#CCOc1ccc2oc(-c3ccc(OC)cc3)c(C(=O)OCC)c2c1CN1CCCCC1 | – | CDC1551 | – | 1.8 µM |
| COC(=O)C=C1SC(=NN=Cc2ccc(OC(=O)CN3C(=O)CSC3=O)cc2)NC1=O | Alamar blue | 192 | – | 69.2 µM |
| CN1CCN(c2ccc(Nc3nccc(-c4ccccc4)n3)cc2C(F)(F)F)CC1 | – | H37Rv auxotrophic strain | – | 10.3 µg/mL |
| [H]/N=C(/N)N[C@H]1[C@H](O)[C@@H](O)[C@H](O[C@@H]2O[C@@H](C)[C@](O)(C=O)[C@H]2O[C@@H]2O[C@@H](CO)[C@H](O)[C@@H](O)[C@@H]2NC)[C@@H](N/C(N)=N\[H])[C@@H]1O | – | H37Rv wild type | – | 1.25 µg/mL |
| CN1CCN(c2ccc(Nc3nccc(-c4ccnc(NCc5ccccc5)c4)n3)cc2C(F)(F)F)CC1 | – | H37Rv auxotroph | – | > 100 µM |
| O=C(CNc1ccccc1)NC1CCCCCC1 | – | H37Rv mc2 6206 | – | ≥ 64 µg/mL |
| CN1CCN(c2ccc(Nc3nccc(-c4cccc([N+](=O)[O-])c4)n3)cc2C(F)(F)F)CC1 | – | H37Rv auxotroph | – | 50 µM |
| CCCCCCCCCCC[C@@H](C[C@@H]1OC(=O)[C@H]1CC1CCCCC1)OC(=O)[C@H](CC(C)C)NC=O | resazurin microtiter | H37Ra | – | 16 µM |
| CO[C@H]1/C=C/O[C@@]2(C)Oc3c(C)c(O)c4c(O)c(c(/C=N/N5CCN(C)CC5)c(O)c4c3C2=O)NC(=O)/C(C)=C\C=C\[C@H](C)[C@H](O)[C@@H](C)[C@@H](O)[C@@H](C)[C@H](OC(C)=O)[C@@H]1C | – | H37Rv | low oxygen | 0.03 µM |
| CN[C@@H]1[C@H](O)[C@H](NC)[C@H]2O[C@@]3(O)C(=O)C[C@@H](C)O[C@H]3O[C@@H]2[C@H]1O | – | H37Rv | – | 50 µg/mL |
| Cc1cn(C2CCN(Cc3ccnc(Oc4cccc(Cl)c4)c3)CC2)c(=O)[nH]c1=O | – | H37Rv | with: PAβN 15 µg/mL | 31.2 µg/mL |
| CN1CCN(c2ccc(Nc3nccc(-c4ccc(Cl)cc4)n3)cc2C(F)(F)F)CC1 | – | H37Rv auxotroph | – | 25 µM |
| CC(=O)NC[C@H]1CN(c2ccc(N3CCOCC3)c(F)c2)C(=O)O1 | – | H37Rv wild type | – | 1.25 µg/mL |

| SMILES | assay | system | setting | MIC |
| --- | --- | --- | --- | --- |
| C=CCOC(=O)c1ccc(O)cc1 | – | pabC deletion mutant | concentration not given, 12 days | 50 µM |
| CC[C@@H](CO)NCCN[C@@H](CC)CO | Microplate Alamar Blue | H37Rv | 5 days, 37 °C | 1 µg/mL |
| CS(=O)(=O)Nc1ncn(-c2cc(F)c(COc3ccc(OS(=O)(=O)F)cc3)c(F)c2)n1 | – | CDC1551, drug-susceptible, lineage 4 | – | 0.02 µM |
| NC[C@H]1O[C@H](O[C@H]2[C@H](O)[C@@H](O[C@H]3O[C@H](CO)[C@@H](O)[C@H](N)[C@H]3O)[C@H](N)C[C@@H]2N)[C@H](O)[C@@H](O)[C@@H]1O | – | H37Rv | – | 2.5 µg/mL |
| COc1c(N2C[C@@H]3CCCN[C@@H]3C2)c(F)cc2c(=O)c(C(=O)O)cn(C3CC3)c12 | broth microdilution | H37Rv | – | 0.31 µM |
| CCOc1cc(C=NNC(N)=S)ccc1OC(=O)CN1C(=O)CSC1=O | Alamar blue | 192 | – | 2.52 µM |
| CO[C@H]1/C=C/O[C@@]2(C)Oc3c(C)c(O)c4c(O)c(c(/C=N/N5CCN(C)CC5)c(O)c4c3C2=O)NC(=O)/C(C)=C\C=C\[C@H](C)[C@H](O)[C@@H](C)[C@@H](O)[C@@H](C)[C@H](OC(C)=O)[C@@H]1C | – | H37Rv wild type | – | 0.5 µg/mL |
| c1ccc(-c2nc3cc(Nc4nccn4-c4cc(NC5CCCC5)ncn4)ccc3[nH]2)cc1 | – | – | – | > 20 µM |
| CN1CCN(c2ccc(Nc3nccc(-c4cccnc4)n3)cc2C(F)(F)F)CC1 | – | H37Rv auxotroph | – | > 100 µM |
| Nc1ccc(S(=O)(=O)Nc2nccs2)cc1 | – | H37Rv wild type | – | 200 µg/mL |
| CC[C@@H](CO)NCCN[C@@H](CC)CO | – | – | compound alone | 12.5 µM |
| CO[C@H]1/C=C/O[C@@]2(C)Oc3c(C)c(O)c4c(O)c(c(/C=N/N5CCN(C)CC5)c(O)c4c3C2=O)NC(=O)/C(C)=C\C=C\[C@H](C)[C@H](O)[C@@H](C)[C@@H](O)[C@@H](C)[C@H](OC(C)=O)[C@@H]1C | Alamar blue | 192 | – | 0.152 µM |
| CN1CCN(c2ccc(Nc3nccc(-c4ccnc(Cl)c4)n3)cc2C(F)(F)F)CC1 | – | H37Ra ATCC 25177 | median | 14 µg/mL |
| CCCCCCC#Cc1cncc(-c2nnc(SCc3ccc(Cl)cc3)n2C)c1 | broth microdilution | H37Rv | – | 19 µM |
| COc1cc(C=NNC(N)=S)ccc1OC(=O)CN1C(=O)CSC1=O | Alamar blue | 192 | – | 5.23 µM |
| CN1CCN(c2ccc(Nc3nccc(-c4cccc(Cl)c4)n3)cc2C(F)(F)F)CC1 | – | H37Rv auxotroph | – | 12.5 µM |
